Measurements gathered from unrelated publications.
Each line is one published result; not all experiments were run side by side.
Medium: plasma

SMILES	test system	setting	Vd/F
CCOc1ccc(Cc2cc([C@@H]3S[C@H](CO)[C@@H](O)[C@H](O)[C@H]3O)c(OC)cc2C)cc1	human	oral, 10 mg/day, multiple doses	38.8 L
O=C(c1nc2n(n1)[C@H](c1ccccc1)C[C@@H]2F)C1CC1	human	oral, 75 mg, single dose, fasted, healthy volunteers	92.3 L
CCOc1ccc(Cc2cc([C@]34OC[C@](CO)(O3)[C@@H](O)[C@H](O)[C@H]4O)ccc2Cl)cc1	human	oral, 15 mg, single dose	240 L
N#Cc1ccc(-c2cnc3ccc(-c4ccc(C(=O)N5CCOCC5)cc4)cn23)cc1	human	oral, 10 mg, single dose, fed, healthy volunteers	13.3 L
COc1cccc(-c2ccc(NC(=O)C3=C(C(=O)O)CCC3)c(F)c2)c1	male human	oral, 10 mg, single dose, fasted, healthy volunteers	9.36 L
CCCC[C@H](NC(C)=O)C(=O)N[C@H]1CCC(=O)NC[C@@H](C(=O)N[C@@H](Cc2c[nH]c3ccccc23)C(N)=O)NC(=O)[C@H](CCCNC(=N)N)NC(=O)[C@@H](Cc2ccccc2)NC(=O)[C@H](Cc2c[nH]cn2)NC1=O	human	subcutaneous, 5 mg, single dose, healthy volunteers	488 L
O=C(c1cccnc1-c1ccncc1)N1CCC(O)(Cc2ccccc2)CC1	human	oral, 300 mg, healthy volunteers	1360 L
Cc1ccsc1C(=O)Nc1cc(CN2CCN(C(=O)CO)CC2)ccc1/C=C/c1n[nH]c2ccccc12	human	oral, 50 mg/day, patients	19.7 L
